Results gathered from unrelated publications.
Every numbered part comes from another study and shows a few of its results, in no order. Several values in a cell are separate wells, animals, samples, runs or records.

Study 1
Technique: PRP chromatography estimate
Medium: 1,9-decadiene/PBS
pH: 7.4
SMILES | logD
CC(C)C[C@@H]1NC(=O)[C@H](C(C)C)NC(=O)[C@@H](CC(C)C)NC(=O)[C@@H](CC(C)C)NC(=O)[C@@H](Cc2cscn2)NC(=O)[C@H](CC(C)C)NC(=O)[C@@H](CC(C)C)NC1=O | 1.15
CC(C)C[C@@H]1NC(=O)[C@H](CC(C)C)NC(=O)[C@@H](CC(C)C)NC(=O)[C@H](C(C)C)NC(=O)[C@@H](Cc2cscn2)NC(=O)[C@@H](CC(C)C)NC(=O)[C@H](C)NC1=O | -0.347
CC(C)C[C@@H]1NC(=O)[C@H](C)NC(=O)[C@@H](CC(C)C)NC(=O)[C@@H](CCC(=O)N2CCCC2)NC(=O)[C@H](CC(C)C)NC(=O)[C@@H](CC(C)C)NC(=O)[C@H](CC(C)C)NC1=O | 0.152
CCC[C@@H]1NC(=O)CSC[C@@H](C(=O)OCC)N(C)C(=O)[C@H](CC(C)C)NC(=O)[C@H](C)N(C)C(=O)[C@@H](CC(C)C)NC(=O)[C@H](C)N(C)C(=O)[C@@H]2CCCN2C(=O)[C@H](CC(C)C)NC(=O)CN(C)C1=O | -0.348
CC(C)C[C@@H]1NC(=O)[C@H](Cc2cscn2)NC(=O)[C@@H](CC(C)C)NC(=O)[C@H](C(C)C)NC(=O)[C@H](CC(C)C)NC(=O)[C@@H](CC(C)C)NC(=O)[C@H](CC(C)C)NC1=O | 1.19
CC(C)C[C@@H]1NC(=O)[C@H](C(C)C)NC(=O)[C@H](CC(C)C)NC(=O)[C@@H](CC(C)C)NC(=O)[C@H](CC(C)C)NC(=O)[C@H](C(C)C)NC(=O)[C@H](Cc2cscn2)NC1=O | 0.753
CC(C)C[C@@H]1NC(=O)[C@H](C)NC(=O)[C@H](CC(C)C)NC(=O)[C@@H](CC(C)C)NC(=O)[C@H](CC(C)C)NC(=O)[C@H](C)NC(=O)[C@H](CCC(=O)N2CCCC2)NC1=O | -1.95
CC(C)C[C@@H]1NC(=O)[C@H](Cc2cscn2)NC(=O)[C@@H](CC(C)C)NC(=O)[C@H](CC(C)C)NC(=O)[C@@H](CCC(=O)N2CCCC2)NC(=O)[C@H](CC(C)C)NC(=O)[C@@H](CC(C)C)NC1=O | 0.18

Study 2
SMILES: FC(F)(F)c1ccc2c(c1)nc(-c1cccnc1)n2C1CC1
Concentration: 1 µM
target | observed | action | technique | baseline | remaining binding
CAMK1 (Homo sapiens, UniProt Q14012) | cell-free assay | – | competition with immobilised ligand | – | 100%
CDK2 (Homo sapiens, UniProt P24941) | cell-free assay | – | competition with immobilised ligand | – | 100%
CLK2 (Homo sapiens, UniProt P49760) | cell-free assay | – | competition with immobilised ligand | – | 100%
DAPK3 (Homo sapiens, UniProt O43293) | cell-free assay | – | competition with immobilised ligand | – | 100%
RET (Homo sapiens, UniProt P07949, M918T) | cell-free assay | – | competition with immobilised ligand | – | 91%
RIOK3 (Homo sapiens, UniProt O14730) | cell-free assay | – | competition with immobilised ligand | – | 93%
HIPK3 (Homo sapiens, UniProt Q9H422) | cell-free assay | – | competition with immobilised ligand | – | 100%
IKBKE (Homo sapiens, UniProt Q14164) | cell-free assay | – | competition with immobilised ligand | – | 100%
CAMK4 (Homo sapiens, UniProt Q16566) | cell-free assay | – | competition with immobilised ligand | – | 100%
SGK2 (Homo sapiens, UniProt Q9HBY8) | cell-free assay | – | competition with immobilised ligand | – | 100%
IRAK3 (Homo sapiens, UniProt Q9Y616) | cell-free assay | – | competition with immobilised ligand | – | 100%
PIP4K2B (Homo sapiens, UniProt P78356) | cell-free assay | – | competition with immobilised ligand | – | 82%
CAMK2D (Homo sapiens, UniProt Q13557) | cell-free assay | – | competition with immobilised ligand | – | 100%
FLT1 (Homo sapiens, UniProt P17948) | cell-free assay | – | competition with immobilised ligand | – | 100%
CSNK1E (Homo sapiens, UniProt P49674) | cell-free assay | – | competition with immobilised ligand | – | 100%
NEK7 (Homo sapiens, UniProt Q8TDX7) | cell-free assay | – | competition with immobilised ligand | – | 100%
Ribosomal protein S6 kinase alpha-3, C-terminal kinase domain (RPS6KA3, Homo sapiens, UniProt P51812) | cell-free assay | – | competition with immobilised ligand | – | 71%
ACVR2A (Homo sapiens, UniProt P27037) | cell-free assay | – | competition with immobilised ligand | – | 100%
MAPKAPK5 (Homo sapiens, UniProt Q8IW41) | cell-free assay | – | competition with immobilised ligand | – | 97%
SIK1 (Homo sapiens, UniProt P57059) | – | binder | KINOMEscan competition binding | DMSO | 100%
PRKX (Homo sapiens, UniProt P51817) | cell-free assay | – | competition with immobilised ligand | – | 100%
EGFR (Homo sapiens, UniProt P00533, A750P/del747-749) | cell-free assay | – | competition with immobilised ligand | – | 87%
STK32A (Homo sapiens, UniProt Q8WU08) | cell-free assay | – | competition with immobilised ligand | – | 89%
PIK3C3 (Homo sapiens, UniProt Q8NEB9) | cell-free assay | – | competition with immobilised ligand | – | 100%
LTK (Homo sapiens, UniProt P29376) | cell-free assay | – | competition with immobilised ligand | – | 100%

Study 3
Target: Calcium/calmodulin-dependent protein kinase type II subunit alpha (CAMK2A, Homo sapiens, UniProt Q9UQM7)
Observed: enzyme activity
Action: inhibitor
Concentration: 10 µM
SMILES | inhibition [%]
NCC(=O)N1CCC[C@H]1C(=O)O | -25
O=C1/C(=C2\Nc3ccc(S(=O)(=O)O)cc3C2=O)Nc2ccc(S(=O)(=O)O)cc21 | -6
COc1ccc(/C=C\c2cc(OC)c(OC)c(OC)c2)cc1OP(=O)(O)O | -28
CCCCN1CCCC[C@H]1C(=O)Nc1c(C)cccc1C | -6
C=C1C(=O)[C@@]23[C@@H]4OC5O[C@@]2(O)[C@@H](O)[C@@H]2C(C)(C)CC[C@@H](O)[C@]52[C@@H]3CC[C@@H]14 | 1
C[N+]1(C)CCC[C@H]1C(=O)[O-] | 40
CN(C)CCCC1(c2ccc(F)cc2)OCc2cc(C#N)ccc21 (stereo not drawn) | -2
COc1ccc(C2COc3cc(O)ccc3C2)c(O)c1OC (stereo not drawn) | -20
O=C(c1ccc(F)c(F)c1Nc1ccc(I)cc1F)N1CC(O)([C@@H]2CCCCN2)C1 (racemic) | -0.09
CCCCCCCCCCCCO | -48

Study 4
Target: Diamine acetyltransferase 1 (Homo sapiens, UniProt P21673)
Action: inhibitor
Concentration: 10 µM
Baseline: control
Residues (P21673 1-171): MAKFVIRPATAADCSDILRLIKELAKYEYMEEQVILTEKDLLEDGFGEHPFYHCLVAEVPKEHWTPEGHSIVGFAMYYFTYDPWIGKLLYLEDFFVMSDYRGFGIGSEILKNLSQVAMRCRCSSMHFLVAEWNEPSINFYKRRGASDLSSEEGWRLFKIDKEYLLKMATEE
Structure (SMILES) | remaining activity [%]
COC(=O)[C@]1(O)C[C@@H](O)[C@@H](O)[C@H](OC(=O)C=Cc2ccc(O)c(O)c2)C1 | 86.7
O=C1c2c(O)cc(O)cc2O[C@H](c2ccc(O)cc2)[C@H]1O | 105
O=c1cc(-c2ccc(O)cc2)oc2cc(O)ccc12 | 89.9
C[C@H](CC(=O)C[C@@H](C)[C@H]1C[C@H](O)[C@@]2(C)C3=C(C(=O)C[C@]12C)[C@@]1(C)CC[C@H](O)C(C)(C)[C@@H]1C[C@@H]3O)C(=O)O | 106
COc1ccc(-c2cc(=O)c3c(O)cc(O)cc3o2)cc1O | 95.8
O=c1ccc2cc3ccoc3cc2o1 | 78.9
C=C(CC[C@@H](C(=O)O)[C@H]1[C@H](O)C[C@@]2(C)C3=CC[C@H]4C(C)(C)C(=O)CC[C@]4(C)C3=CC[C@]12C)C(C)C | 103
O=C1CCCCCCCCCCCCCC1 | 108
C[C@H]1[C@H](C)CC[C@]2(C(=O)O)CC[C@]3(C)C(=CC[C@@H]4[C@@]5(C)CC[C@H](O)C(C)(C)[C@@H]5CC[C@]43C)[C@H]12 | 99.5
C[C@@H]1O[C@@H](O[C@H]2[C@H](OC(=O)[C@]34CCC(C)(C)C[C@H]3C3=CC[C@@H]5[C@@]6(C)C[C@H](O)[C@H](O[C@@H]7O[C@H](CO)[C@@H](O)[C@H](O)[C@H]7O)C(CO)(CO)[C@@H]6CC[C@@]5(C)[C@]3(C)C[C@H]4O)OC[C@H](O)[C@@H]2O)[C@H](O)[C@H](O)[C@H]1O[C@@H]1OC[C@@H](O)[C@H](O)[C@H]1O | 119
CCCCCCCCCCCCCCO | 106

Study 5
Structure (SMILES): C[C@@H]1CN(c2ccc(-c3cc(C(=O)NCCOCCOCCOCCOCCNC(=O)Cn4cc(-c5[nH]cc(C(=O)N[C@@H](CC(N)=O)c6ccc(F)c(Cl)c6)c5-c5ccc(Cl)cc5F)cn4)ccc3F)cc2NC(=O)c2c[nH]c(=O)cc2C(F)(F)F)C[C@H](C)N1C
Action: degrader
Time: 24 h
WDR5: WD repeat-containing protein 5 (WDR5, Homo sapiens, UniProt P61964)
target | technique | measured | concentration | baseline | remaining protein level
WDR5 | Jess capillary immunoassay | WDR5 over vinculin | 25.7 nM | DMSO | 108% and 118% and 92.5%
WDR5 | Jess capillary immunoassay | WDR5 over vinculin | 331 nM | DMSO | 71.6% and 87.4% and 103%
WDR5 | Jess capillary immunoassay | WDR5 over vinculin | 10000 nM | DMSO | 106% and 195% and 83.7%
WDR5 | Jess capillary immunoassay | WDR5 over vinculin | 777 nM | DMSO | 104% and 74.9% and 89.5%
WDR5/DCAF1 (Homo sapiens, UniProt P61964+Q9Y4B6) | HiBiT luminescence | – | 13.3 nM | – | 98.7% and 90.7% and 101%
WDR5 | Jess capillary immunoassay | WDR5 over vinculin | 11 nM | DMSO | 97.5% and 102% and 117%
